# Results gathered from unrelated publications.
# Every numbered part comes from another study and shows a few of its results, in no order.

# Set 1
# Target: Sal-like protein 4, full length isoform B (SALL4, Homo sapiens, UniProt Q9UJQ4-2, residues 1-616)
# Technique: universal PBM
# Form: double-stranded DNA, one strand shown
# Sample: in vitro
# Concentration: not given
# Setting: 8-mer, flanks averaged, mean of replicates
# Direction: higher = stronger binding
Oligonucleotide,E-score
AGATACGC,-0.0547
ACAGACCC,-0.167
GACCACCC,-0.335
AAAGAGCG,-0.189
GATTTGTA,0.161
AGTGGACC,-0.158
CCCTACCA,-0.17
CTTTGGCC,-0.0865
AGGACACT,-0.0977
AAGCAGAC,-0.181
AAGGATGA,0.249
GAAGGGAC,-0.135
CTTACGTA,0.27
GCGATATA,0.171
ACTGTCCA,0.0115

# Set 2
# Target: Interferon regulatory factor 7, full length, phosphomimetic (IRF7, Homo sapiens, UniProt Q92985, residues 1-503, S101K/S471D/S472D/S475D/S476D/S477D/S483D/S484D/S487D)
# Technique: protein-binding microarray
# Form: double-stranded DNA, one strand shown
# Sample: in vitro
# Concentration: 250 nM
# Setting: 60-bp whole probe
# Together with: salmon DNA 0.4 mg/ml
# Relative to: random background probes
# Direction: higher = stronger binding
# Shared flanks, not repeated: GCCTAGCAC … GTCTTGATTCGCTTGACGCTGCTG
# Construct (chain): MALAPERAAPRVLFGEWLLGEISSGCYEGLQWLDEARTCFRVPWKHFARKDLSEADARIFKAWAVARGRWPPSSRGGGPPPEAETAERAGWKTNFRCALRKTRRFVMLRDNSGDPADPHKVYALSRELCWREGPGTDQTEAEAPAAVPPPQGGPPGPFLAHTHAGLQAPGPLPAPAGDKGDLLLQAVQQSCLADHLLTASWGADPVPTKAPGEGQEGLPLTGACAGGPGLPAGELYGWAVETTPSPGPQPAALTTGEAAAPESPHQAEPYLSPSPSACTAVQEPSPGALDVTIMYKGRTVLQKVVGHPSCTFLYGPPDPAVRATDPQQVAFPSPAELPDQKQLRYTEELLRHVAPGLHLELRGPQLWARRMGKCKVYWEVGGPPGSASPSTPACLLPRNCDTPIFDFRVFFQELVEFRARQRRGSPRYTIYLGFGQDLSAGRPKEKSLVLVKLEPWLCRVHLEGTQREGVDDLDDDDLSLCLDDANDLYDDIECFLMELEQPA
Oligonucleotide,log fluorescence
TACGGACTGGGTTTCGGGACGTGCTAG,1.98 z-score
TCAAAGATTGCCGTTTCCACTGTGCTA,-0.0308 z-score
GACGGACTGGGATATCGGGACGTGCTA,-0.556 z-score
TTAGGTTTCAGTTTCGGTTAGTGCTAG,11.4 z-score
TCAGCATTGCTTCTATAACTGTGCTAG,-0.403 z-score
GACGATTTCAGTTCCGAGGCGTGCTAG,0.636 z-score
ACACTACCTGACTTCAAACTGTGCTAG,0.167 z-score
GACGGTATCCGGTATCGGGACGTGCTA,0.108 z-score
TTAGGCATCGACACTGGGTTAGTGCTA,-0.88 z-score
TCATTTCTGAATGTCTTACTGTGCTAG,1.18 z-score
TCAAAAATAGAAACTCGTACTGTGCTA,0.865 z-score
GACGGTTTCGGTCACGGGACGTGCTAG,3.97 z-score
TTATATTTCAGTCTCGATTAGTGCTAG,2.61 z-score
ACTCCTATCCAAGTTCCCCTGGTGCTA,0.668 z-score
GTCACTCTCTGGGCTGTGGGTGTGCTA,0.0476 z-score
TTAGGTCACGGTTTCGGTTAGTGCTAG,9.62 z-score
GACGGTAGCGGGTATCGGGACGTGCTA,-0.748 z-score
TTAGATTTCAGTTTAGATTAGTGCTAG,1.49 z-score
GACGGTTTCGGTCTCGGTACGTGCTAG,8.07 z-score
GACGATCTCAGTCTCGAGACGTGCTAG,0.348 z-score
GGTCCAACAAACAGATCCATGTGCTAG,0.63 z-score
CCCGCCCCGCCCCGCCCGCAGTGCTAG,0.25 z-score
TTAGGTATCGGGTATCGCTTAGTGCTA,1.29 z-score
GACGATTTCAGTCTCGAGGCGTGCTAG,0.561 z-score
GACGAACTGGGACTGGGGACGTGCTAG,-0.265 z-score

# Set 3
# Target: Histone acetyltransferase KAT6A, winged helix 1, GST fusion (KAT6A, Homo sapiens, UniProt Q92794, residues 1-85)
# Technique: protein binding microarray
# Form: double-stranded DNA, one strand shown
# Sample: in vitro
# Concentration: not given
# Setting: 8-mer, flanks averaged, mean of 2 arrays, mostly near background
# Relative to: not given
# Direction: higher = stronger binding
# Target sequence (chain): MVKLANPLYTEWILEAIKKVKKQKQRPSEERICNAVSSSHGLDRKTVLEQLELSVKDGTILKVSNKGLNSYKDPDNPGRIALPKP
Oligonucleotide,E-score
ACCCCGCA,0.267
CCAGTACA,-0.153
GGTAACGA,-0.0314
CCACCGAC,0.0906
CCAGGCCC,-0.16
ATGAGTAC,0.0964
CCTCGTTC,-0.0709
CGTGGATC,0.00235
AACGTTTA,-0.107
TGATTGAA,-0.111
GCGGGTCC,0.341
ATATCCAG,-0.176
GTTTTGGA,-0.173
CGATCCCG,0.283
AAATCGAG,-0.155
AACGGTGT,0.0665
ATTCTGCC,0.015
AGCTCAAT,-0.13
CAATCCGA,0.047
TCATGGGA,-0.213
CGGTCAAC,0.201

# Set 4
# Target: RING finger protein unkempt homolog, zinc fingers 1-6, GST-SBP tag (UNK, Homo sapiens, UniProt Q9C0B0, residues 30-357)
# Technique: RNA Bind-n-Seq
# Form: RNA
# Sample: in vitro
# Concentration: not given
# Setting: RNA with constant flanks, human and mouse sites, ends assumed
# Relative to: input RNA pool
# Direction: higher = stronger binding
# Shared flanks, not repeated: GGGAGUUCUACAGUCCGACGAUC … CAACAGAGGAUUGAGCAUCA
# Residues (chain): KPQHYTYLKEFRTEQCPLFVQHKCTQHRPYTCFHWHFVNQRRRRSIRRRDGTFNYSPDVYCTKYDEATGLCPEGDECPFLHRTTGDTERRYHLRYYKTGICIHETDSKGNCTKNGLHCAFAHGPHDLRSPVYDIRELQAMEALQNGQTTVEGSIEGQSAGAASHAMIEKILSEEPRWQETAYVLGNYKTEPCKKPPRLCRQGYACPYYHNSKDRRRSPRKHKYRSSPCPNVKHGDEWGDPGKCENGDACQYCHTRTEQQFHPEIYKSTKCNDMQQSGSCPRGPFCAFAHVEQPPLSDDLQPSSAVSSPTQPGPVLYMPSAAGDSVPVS
Oligonucleotide,bound/input enrichment
CUGGAGGAACUGCAACUGGAAUCCCCGAAGCUCCAUGCUGAGGCCAUCAAGCGGGAUCCUAACCUGUUCCCCUUUGAGAAGGAAGGGCCACAUUACACACCACCGAUCCCUAACUACCAA,0.108 ratio
GAAGAUGAUGAAGAAUCUGGACGAUUACGUUUCAAAACUGAAAGGAAAGAAGGAACAAUUAUUAGGCUCUCAGAUGUAACUAGAGAGAGAAGGAACAUUCCAGAAACUUUGGAGCUUUCA,0.268 ratio
UUUGACAAGGAUGGGAAUGGUUACAUCAGUGCGGCAGAACUGCGCCACGUCAUGACAAACUUAGGAGAAAAGCUAACAGAUGAAGAAGUAGAUGAAAUGAUCAGAGAAGCAGAUAUUGAU,2.15 ratio
CGUGAGAAGAUCGAGGCGGAGCUGCAGGACAUCUGCAACGAUGUGCUGGAGCUGUUGGACAAAUAUCUCAUUCUCAAUGCCACCCAGGCAGAAAGCAAAGUGUUCUACUUAAAAAUGAAA,0.1 ratio
AAGGAUGCUUUUGAUAAAGGUUCCCUUUUUGGAGGGUCUGUAAAAUUGGCUCUUGCAAGCUUAGGAUAUGAAAAGAGCUGUGUGUUGUUCAAUUGUGCUGCCUUAGCUAGCCAGAUUGCA,1.04 ratio
AUGGGAAUGGACAUCCACAGAUCCCUGUUGGUCACUGGGAUCCCUGAGUACUGUAGCCACGCAGAAAUUGAGGAGACCUUGAAUGGGGUCCUCUUGCCACUGGGCACAUACCGUGUGCUC,0.105 ratio
AUGAUCCAACUCAAUGGAUGUCAGCCCAUGGAGAUCAAAGUGCUGGGUCCUUAUACCUUUAGUAUCUGUGACACUUCCAACUUCUCUGACUACAUCCGUGGAGGCAUCGUCAGUCAGGUC,0.0927 ratio
CUGACACUACUCUUCACUGAGCUGGCAAAAGUAAUAGAAAGCUCAGCGAAGGGUUUCCCUAGUUUUAUUUCUGAUAUGUUAUCUAAGUGCAAAGUUCAGAAAGUGAUUCUUCAUUGUUUG,3.76 ratio

# Set 5
# Target: RNA binding protein fox-1 homolog 2, RRM domain, GST-SBP tag (RBFOX2, Homo sapiens, UniProt O43251-10, residues 100-194)
# Technique: RNA Bind-n-Seq
# Form: RNA
# Sample: in vitro
# Concentration: 365 nM
# Setting: natural RNA segment, single round, ends assumed
# Relative to: no-protein control
# Direction: higher = stronger binding
# Shared flanks, not repeated: GGGAGUUCUACAGUCCGACGAUC … UGGAAUUCUCGGGUGCCAA
# Construct (chain): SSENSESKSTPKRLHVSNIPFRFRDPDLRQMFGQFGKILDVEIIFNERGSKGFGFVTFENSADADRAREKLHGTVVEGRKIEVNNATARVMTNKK
Oligonucleotide,RBNS enrichment (R)
AACCAUUAAAACCAACAUGGAAUGCAGGGACUUCGCCUUAUAAGAUUUCCAGUUUUAAAACUGCCCCUCAGAUACAAUUUCAAAGUAGGGUACACAUUAGAGUGUCUUUG,0.391
AAAAAAAGCAGCCUUUUAGGGCUAGAGUAUUUUAUAUAAACAGAAGAGCUAAGUUCCUGAAGACUAAGCUAGAUAGCUGCAGCUAUAUGUAAAUUGUAUAUUUUUAUGAA,0.812
UACAUCAUCGGAGGAGUCUGCUGUCCCUAACACAGAGGGAGACCUCGCUUUCCUACCCCAAGCAAGUAUUGGUGGCCAUGGCAGCGUGGCGAAGCCAUGCUGGGCGGGAG,0.167
UGUAGUAUCAACUGUGAACUGAAACCAGGUUGAUUUUAGUAACCACAUUCUUUGAUUUGACAUUGAUGUCAUCUUACAGGGCUGCGCUUGCUGGGCAUGCUUUUAAGUCU,3.16
CUUUAGCCCCUUCAUUUUGAAUAUGAUGCCACAUAUGAAUGUUGAAGCUGAUACAUUGCACAAUUCUCUAGACACCACUCACUACACUAAUGCAGUUUUUCAAAUUCUAG,0.596
UUUUUAAGACAAAUGUGAAAAUGACCAAAUCACACCAAGCAACUAACUCAAAAAUUAGGAUGCAAGAGAAAAUACUUCUCUAGAUCCAAACACUGGCCUUCUGUUCCUCU,0.289
AUGGCUGAUCUCUCCUCAAAGAGGUGAGUAGAAAAGAGAUUCUUGUUUAAAAGAGUCUAGCAAGAAGCAGUAGCUUGUCUGCUAAGAGUACAAAAAUUAUAUGACAAAUU,0.825
UUGAUUCUCUAUCGUGAUGCGAAAUUGAUGCCUGCUGCUCUACAGAAAAUGCCAACUUGGUUUUUUAACUCCUCUCACCCUGUUAGCUCUGAUUAAAAACACUGCAACCC,0.844
CAACUCGUUUUUAUAUUAAUGUACUUGUUUCUCUGUUGUAAGAAUAGGCAUUAACACAAAGGAGGCGUCUCGGGAGAGGAUUAGGUUCCAUCCUUUACGUGUUUAAAAAA,0.72
UCUUGGACCAGGGCUUGCAAGGCGAUUUGGGUUUCUGUGAGCUUGCCCAGUUGACCCGAAAAAUAGGACUUUUUAGAAUUGCAUUGCCACUUCUAAAAUCCUAGCAAUAC,0.34
UUAUUCCUGGGAGGUUGCUUAAAGCUGAAAUAGAACUGAAAUGCAGUUGGUAGACUAGCCAAACAUCUGCUUGCUCUCACUUUGUUUUGGAAGAACCAUGGUAGCUUGUC,0.99
UUAGCCUUCCUUGAAGUAUUUGUGGGUGGAUGUUCCGUUAAAUUUUCCAGAAUGCAUUGCACAUCUUUUUAUGAAAUCUAGACUAUGAAAAGGUGAUAAACAUGAAGUAA,1

# Some of these lines once more (set 1):
Oligonucleotide,E-score
ACTGTCCA,0.0115
AAAGAGCG,-0.189
AGTGGACC,-0.158
CTTTGGCC,-0.0865
ACAGACCC,-0.167
CCCTACCA,-0.17
AAGGATGA,0.249
GATTTGTA,0.161
GCGATATA,0.171
GAAGGGAC,-0.135
AGGACACT,-0.0977
AAGCAGAC,-0.181
